# Experimental data from different studies.
# Parts stem from different laboratories: compare values within a part only. Changes are numbered by the printed parent chain.

# Set 1 — Change: L156H; method: DHFR PCA, deep sequencing; sample: yeast; baseline: wild-type fitted maximum; direction: higher = stronger binding
# Target: ABI1, truncated, D143A, DHFR fusion (Arabidopsis thaliana)
# Setting: methotrexate growth selection, single substitutions
# Starting sequence: PYL1, truncated, DHFR fusion (Arabidopsis thaliana); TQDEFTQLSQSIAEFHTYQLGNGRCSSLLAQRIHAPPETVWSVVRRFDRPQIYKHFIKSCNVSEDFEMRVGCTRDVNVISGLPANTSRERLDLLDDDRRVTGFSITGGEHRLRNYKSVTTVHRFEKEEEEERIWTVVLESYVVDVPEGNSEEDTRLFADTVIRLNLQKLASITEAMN; partner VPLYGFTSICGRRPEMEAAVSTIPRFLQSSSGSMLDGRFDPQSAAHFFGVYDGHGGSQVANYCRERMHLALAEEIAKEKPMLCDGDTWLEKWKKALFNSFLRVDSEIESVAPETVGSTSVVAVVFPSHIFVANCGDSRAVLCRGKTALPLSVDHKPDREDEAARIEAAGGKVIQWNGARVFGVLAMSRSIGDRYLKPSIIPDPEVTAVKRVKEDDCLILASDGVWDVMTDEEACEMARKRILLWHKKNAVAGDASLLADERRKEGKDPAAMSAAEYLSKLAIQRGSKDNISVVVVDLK
conditions,relative binding score [%]
together with: (+)-ABA 4.8 µM,54.3
together with: (+)-ABA 17 µM,72.7
together with: (+)-ABA 0.0091 µM,3.93
together with: (+)-ABA 1.4 µM,25.5
together with: (+)-ABA 200 µM,91
together with: (+)-ABA 0.032 µM,3.21

# Set 2 — method: protein-binding microarray; form: double-stranded DNA, one strand shown; sample: in vitro; concentration: 2540 nM top; setting: 60-bp whole probe; together with: salmon DNA 0.4 mg/ml; baseline: random background probes; direction: higher = stronger binding; constant ends, left off below: GCCTAGCAC … GTCTTGATTCGCTTGACGCTGCTG
# Target: Interferon regulatory factor 3, full length, phosphomimetic (IRF3, Homo sapiens, UniProt Q14653, residues 1-427, S386D/S396D/S398D/S402D/T404D/S405D)
# Construct (chain): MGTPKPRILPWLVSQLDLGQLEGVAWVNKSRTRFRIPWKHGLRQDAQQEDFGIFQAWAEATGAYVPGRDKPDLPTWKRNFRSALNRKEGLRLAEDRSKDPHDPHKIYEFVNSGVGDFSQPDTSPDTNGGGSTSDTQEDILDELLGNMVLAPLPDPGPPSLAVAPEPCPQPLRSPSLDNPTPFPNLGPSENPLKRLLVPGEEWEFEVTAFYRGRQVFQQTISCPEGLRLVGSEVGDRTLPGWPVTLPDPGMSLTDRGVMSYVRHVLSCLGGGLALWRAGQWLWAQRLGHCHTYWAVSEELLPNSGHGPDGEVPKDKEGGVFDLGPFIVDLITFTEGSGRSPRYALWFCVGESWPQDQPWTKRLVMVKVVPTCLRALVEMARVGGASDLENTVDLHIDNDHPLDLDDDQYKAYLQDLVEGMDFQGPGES
Sequence,fitted relative affinity
GACGAACTGGGGTTTCGAGTCGTGCTA,0.725 z-score
TCAAATTTCCATTTTCTACTGTGCTAG,4.83 z-score
TTAGATCGCAGTATCGATTAGTGCTAG,0.746 z-score
TCACTTTTCACTTTCTTACTGTGCTAG,3.37 z-score
GACGGGCTGGACTTTCGGGACGTGCTA,-0.381 z-score
TTCGATATCAGTATCGATTAGTGCTAG,1.98 z-score
GACGGACTGCTTATACTGACGTGCTAG,-0.384 z-score
TAAGGACTGGGTTTCGGTTAGTGCTAG,3.39 z-score

# Set 3 — method: protein-binding microarray; form: double-stranded DNA, one strand shown; sample: in vitro; concentration: not given; direction: higher = stronger binding
# Target: Protein C-ets-1 (ETS1, Homo sapiens, UniProt P14921, residues 1-441, full length assumed)
# Setting: k-mer, scored over probes, only values ≥0.25
# Construct (chain): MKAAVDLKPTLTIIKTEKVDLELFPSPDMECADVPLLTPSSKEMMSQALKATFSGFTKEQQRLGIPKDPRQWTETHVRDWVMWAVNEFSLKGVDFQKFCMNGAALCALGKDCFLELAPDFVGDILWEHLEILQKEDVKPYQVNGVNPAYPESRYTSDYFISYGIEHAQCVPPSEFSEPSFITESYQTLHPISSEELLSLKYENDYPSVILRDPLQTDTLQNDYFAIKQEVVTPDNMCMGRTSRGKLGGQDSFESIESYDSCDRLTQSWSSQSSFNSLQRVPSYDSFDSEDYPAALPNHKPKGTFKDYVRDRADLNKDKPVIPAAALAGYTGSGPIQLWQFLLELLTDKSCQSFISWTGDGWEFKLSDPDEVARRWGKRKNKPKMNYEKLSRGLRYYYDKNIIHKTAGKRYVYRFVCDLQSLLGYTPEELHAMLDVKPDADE
Sequence,E-score
CACATCCC,0.397
CACCGGAA,0.49
GAAGCCAC,0.262
TCCGTCCA,0.327
AGCATCCC,0.255
CTAACTTC,0.255
ACCTTCCG,0.444
CTTCCGTA,0.428

# Single results of other studies — starting sequence: viral docking peptide; KKAKRRLFTISDS
Change,target,test,test system,conditions,how to read,measurement,value
KKAKRALFTISDS [R6A],"CCNE2, cyclin fold, Cln2 fusion (human)","yeast growth competition, sequencing",yeast,strong parent motif,"baseline: not given, higher = stronger binding",normalised enrichment score,1.82

# Repeated from above (set 1):
conditions,relative binding score [%]
together with: (+)-ABA 17 µM,72.7
together with: (+)-ABA 0.0091 µM,3.93
together with: (+)-ABA 1.4 µM,25.5
